Results pooled from the literature.
Each numbered part is a random draw from the data of one study; scales do not carry over between parts.

Set 1
Target: Histone acetyltransferase KAT6A, winged helix 2, GST fusion (KAT6A, Homo sapiens, UniProt Q92794, residues 85-181)
Method: protein binding microarray
Molecule type: double-stranded DNA, one strand shown
Matrix: in vitro
Tested at: not given
Setting: 8-mer, flanks averaged, mean of 2 arrays, mostly near background
Reference: not given
Reading: higher = stronger binding
Residues (chain): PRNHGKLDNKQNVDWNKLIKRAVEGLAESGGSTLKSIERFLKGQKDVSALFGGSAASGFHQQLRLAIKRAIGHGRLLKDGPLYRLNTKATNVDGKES
Oligonucleotide	E-score
CGCTGGGC	0.112
AGAGGTAC	-0.133
AGCGCAAC	0.0395
GGATGGTA	0.0145
AGTCTAAA	-0.156
ACAGTGCC	-0.0207
GCTACACA	-0.124
ACTTCTAG	-0.0964
CGGAATCC	-0.209
CCCACTTC	0.0418
CTTGTTCC	0.0281
ACTTGTCG	-0.0986
CATGAGTC	-0.157
CAGGCTTA	0.02
TAAACATA	-0.0196
TCATAAGA	-0.0602
GGGATCTA	-0.157

Set 2
Target: RNA binding protein fox-1 homolog 2, RRM domain, GST-SBP tag (RBFOX2, Homo sapiens, UniProt O43251-10, residues 100-194)
Method: RNA Bind-n-Seq
Molecule type: RNA
Matrix: in vitro
Tested at: 365 nM
Setting: natural RNA segment, single round, ends assumed
Reference: no-protein control
Reading: higher = stronger binding
Residues (chain): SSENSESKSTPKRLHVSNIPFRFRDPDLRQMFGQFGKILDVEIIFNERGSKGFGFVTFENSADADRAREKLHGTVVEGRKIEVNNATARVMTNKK
Oligonucleotide	RBNS enrichment (R)
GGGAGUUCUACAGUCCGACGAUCGCAGCCUGGAAGGACAGGUGGAGGCUGGUACAGUGACUGUCCCAUGCCUGCCAUGGCCACAGGCUCUCUCUGUGCAUUCUCUCUGGAGUUAGCCUGCUUCUCACAGGACAUGGAAUUCUCGGGUGCCAA	0.697
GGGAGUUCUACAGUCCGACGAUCGUCCCCCAGUCAGUUCCUUUAACAGACCUGAGCUUCUAUGAUGCCAAGGGCGUUCACUGCGACCUGGGAGUAAACAGGGUGUCGCUGCCCUGUGAGAGGAAGAUGGGGCCUGGAAUUCUCGGGUGCCAA	0.251
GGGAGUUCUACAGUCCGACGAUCAAAUGCCAAAGGAAGGAAGCCUCAGGGACAGGCUGCAACUUGGAGCCCAGCGCAUCACUCUCGGCUUGCUGGUGCAGUUCACCAUCUCACUGGCCCUACAACUGCCUUAGUGGAAUUCUCGGGUGCCAA	0.469
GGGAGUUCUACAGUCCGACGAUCCUUGAAGAAAGGCAGUGUCCCCGAGUCACACAGCACAGCAGGUAGCAUCAACUAGAGCUAGUUAAUGUGUGUUGUUUUGCUCUUGGGAUCGAGACUUCAGUUUCCAAUGUUGGAAUUCUCGGGUGCCAA	1.99
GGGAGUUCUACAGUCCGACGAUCUUUUGACCCAUGUAAUUUACCUAAAAGUUGUAAUUGCUGACAGAGUACUGCCUUGAAUUUUGGUUUAAAACCUCUCUAGUUUCAAUGACAAGUAACAACUCAAAUAAUUCUGGAAUUCUCGGGUGCCAA	0.604
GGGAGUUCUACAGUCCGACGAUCUAACAAACCAAUAAGAUAUUUGUCUCCUAUAUAAACAUUCUGUGUAUUUAGCACUUGAAAAUCAACAAAUCCAGAAUUUAAAAAAAUGCCACAGACUUUUCAAAGCCCAAUGGAAUUCUCGGGUGCCAA	0.566
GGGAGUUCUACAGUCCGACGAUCGGUGUUUGAUCCCUGCCCAGUGUUGUCGCACAGGGGAAGGGCAGAUACCAAGACCUGUCUGUUGGAUCUGUUUUGUUGAGAUAAACUGAUGUCCUUACAUUUCAUUUGUAUGGAAUUCUCGGGUGCCAA	0.458
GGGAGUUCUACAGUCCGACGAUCGCCAGGCCCUGCUGGAAGAGCUGGAGCACUUCGAGCAAUCGGACAUGCCUAAGGGGAGGCCCAACACCAUGAACAACUACGGGGUGCUGCUGCACGAGCUCGGGCUGGACUGGAAUUCUCGGGUGCCAA	0.704
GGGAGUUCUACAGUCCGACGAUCAAAAUCAACCCUGGUGUUGAGAGAACGUCCUUCUGUCCAUCGUGGGUAACAGCCUUGGGGAGGGUGCAGAGCUCUGCAGAGCCAUGGGCCAGGUGGGGCUGCCUCAGUCCUGGAAUUCUCGGGUGCCAA	0.467
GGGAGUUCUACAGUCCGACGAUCCCACCUUUAGUGUUUGAGCUUUGUCAUUGCUUGUCUCCCUGGCAUGUGCCAGUUAUAGACUGUCCAGCAUCCAAGACGUUUCGGUUAUGUCGGGUCCUCAGAUCGCCUCUUGGAAUUCUCGGGUGCCAA	0.347
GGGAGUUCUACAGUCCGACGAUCCAGGGGCCCCGACUCUUAAGGGGGAGGGUGUGGCUUAACUGCAGCGUUGGAACCUUAAAGUGGGAAAGAUAGGGUCAAGUUAAAGUAAUAAAAUGAGUCAUGUCUCCCGAUGGAAUUCUCGGGUGCCAA	0.499
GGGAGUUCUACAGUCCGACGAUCAGCUCUUUGGCAAUUCUCCUUCCCUCACUCCUCAGGGUGGGGGCUAGAGUAAGCCUGACAUCCUCCUCCAUUCUCAAGACUCUCUCUCUUUCAUUUGGUACCCUGUACCCUGGAAUUCUCGGGUGCCAA	0.385

Set 3
Organism: Saccharomyces cerevisiae
Observed: binding
Method: competitive growth deep sequencing
Molecule type: peptide
Strain: cyclin D2-Cln2 fusion strain
Tested at: concentration not given
Setting: peptide tiling library
Reading: direction not given
Molecule	growth enrichment score
VSRNLRSSLKSSLHTL	-2.11
KVRRNLFNQELLSP	-0.691
ISRLFPPRTPGWHQLQ	-3.07
PPTFLSTGEIHAFLSS	-1.06
EHCRVLFLDHVMYTIH	-0.851
NRLLKLFTRCLTPLVP	-2.67
SPREGHMMDALYAQVK	0.959
NLEPNAEFDKRTEFIT	0.752

Set 4
Target: Prothrombin, mature alpha-thrombin (F2, Homo sapiens, UniProt P00734)
Method: aptamer microarray, sandwich
Molecule type: DNA with 2'F-ANA
Matrix: in vitro
Tested at: 200 nM
Setting: whole 15-mer aptamer, many near background
With: Cy3 exosite-II aptamer, 400 nM
Reading: higher = stronger binding
Oligonucleotide: GGTTGGTGTGGTTGG
Modification	mean fluorescence intensity
2'F-ANA at 1 2 3 4 5 6 7 14	278 a.u.
2'F-ANA at 1 2 4 7 8 11 12 14	64.3 a.u.
2'F-ANA at 1 5 7 8 12 14	50.9 a.u.
2'F-ANA at 1 3 4 5 6 8 15	64.7 a.u.
2'F-ANA at 1 2 7 10 12	65.2 a.u.
2'F-ANA at 3 4 6 7 8 13 15	527 a.u.
2'F-ANA at 1 3 4 5 9 10 12 13 14	51.1 a.u.
2'F-ANA at 1 3 6 11 12 14	99.4 a.u.
2'F-ANA at 3 5 6 7 8 10 11 12 14 15	50.8 a.u.
2'F-ANA at 1 3 4 6 7 13 14 15	93.2 a.u.
2'F-ANA at 2 4 6 9 10 14	71.5 a.u.
2'F-ANA at 2 3 9 12 15	1110 a.u.
2'F-ANA at 3 5 7 8 11 13 15	239 a.u.
2'F-ANA at 2 3 4 8 12 13 14	390 a.u.
2'F-ANA at 1 6 8 14 15	66.8 a.u.
2'F-ANA at 1 2 3 5 12 15	130 a.u.
2'F-ANA at 1 5 6 9 10 11 13	132 a.u.
2'F-ANA at 1 2 5 7 8 9 11 13 15	50.4 a.u.
2'F-ANA at 2 4 5 6 11 14 15	60.8 a.u.
2'F-ANA at 1 2 3 4 7 9 10 14	50.9 a.u.
2'F-ANA at 2 3 5 8 11 12 14 15	81.6 a.u.

Set 5
Target: Ras GTPase-activating protein-binding protein 1, C-terminal RGG region (G3BP1, Homo sapiens, UniProt Q13283)
Sequence of UniProt Q13283 (whole entry, looked up): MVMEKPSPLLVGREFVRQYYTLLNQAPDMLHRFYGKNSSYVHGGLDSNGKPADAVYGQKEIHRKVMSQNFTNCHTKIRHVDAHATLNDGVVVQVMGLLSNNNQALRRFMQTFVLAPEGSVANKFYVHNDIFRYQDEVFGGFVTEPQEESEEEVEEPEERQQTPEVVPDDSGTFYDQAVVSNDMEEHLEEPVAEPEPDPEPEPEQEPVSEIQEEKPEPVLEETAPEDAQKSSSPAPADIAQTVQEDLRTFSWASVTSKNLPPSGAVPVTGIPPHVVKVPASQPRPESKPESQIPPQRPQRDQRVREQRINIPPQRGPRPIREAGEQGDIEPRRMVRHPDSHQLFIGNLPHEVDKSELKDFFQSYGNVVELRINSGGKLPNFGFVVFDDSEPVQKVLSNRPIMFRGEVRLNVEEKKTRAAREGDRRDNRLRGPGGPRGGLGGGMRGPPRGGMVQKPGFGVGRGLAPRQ
Method: RNA Bind-n-Seq
Molecule type: RNA
Matrix: in vitro
Tested at: 1 µM
Setting: whole 134-nt RNA, ends assumed
With: 150 mM KCl
Reference: input library
Reading: higher = stronger binding
Oligonucleotide	log2 enrichment
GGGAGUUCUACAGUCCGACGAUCACCAUGCAGGUGGGCAUCUUUGGGAAGUGGGGCAAAGGGGGGAUAGGGAGGGGGGUAACACUUUGGGAACAGGUGGUCCCAGGUCGUUUCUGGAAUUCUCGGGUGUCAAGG	-0.868
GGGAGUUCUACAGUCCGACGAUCGCAGGAAGUAAAAACAAAUGGAAAUGCCUCGGAUAGUGGCAGGGGUGGGGGUUGCUAAGGAAAGGGUGGGAUGGGAGUGGGUAAAGAGUUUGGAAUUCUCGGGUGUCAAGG	1.61
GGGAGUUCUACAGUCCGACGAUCGCAGGAAGUAAAAACAAAUGGAAAUGCUUCGGAUAGUGGCAGGGGUGGGGGUUGCUAAGGAAAGGGUGGGAUUGGAGUGGGUAAAGAGUUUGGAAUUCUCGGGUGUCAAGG	1.65
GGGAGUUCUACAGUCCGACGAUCAGUCCUGUGCUACACAUCGUAUGUACCGAAUCGGGGAAAGGGGAAAAAGGGGAGGGGAAAGUAUUAUGUUACGCCGUUCGGAUCUGCACUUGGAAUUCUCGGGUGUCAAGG	3.07
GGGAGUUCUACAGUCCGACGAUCCACAGACAACACGCACCCACACAGACACAGAGGGAAGGGGUUGGGAUGAAAACAGGGUGCACAGCAGGGCGGGGUAGGACCCCAGCCCCUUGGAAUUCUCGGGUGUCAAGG	-0.294
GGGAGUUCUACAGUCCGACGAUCUCCUGUGCUACACAUCGUAUGUACCGAAUCGGGGUUUGGGGAAAGGGGAAAAAAAGGGGAAAGUAUUAUGUUACGCCGUUCGGAUCUGCAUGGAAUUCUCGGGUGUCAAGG	1.42
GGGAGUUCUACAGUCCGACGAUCGUCCUGUGCUACACAUCGUAUGUACCGAAUCGGGGUGGGGAAAAAAAGGGGUUUGGGGAAAGUAUUAUGUUACGCCGUUCGGAUCUGCACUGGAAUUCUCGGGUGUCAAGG	1.93
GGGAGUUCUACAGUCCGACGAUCAGUCCUGUGCUACACAUCGUAUGUACCGAAUCGGAAAAAGGAAAAAGGGAAAAAGGGAAAGUAUUAUGUUACGCCGUUCGGAUCUGCACUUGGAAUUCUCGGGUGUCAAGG	-1.84
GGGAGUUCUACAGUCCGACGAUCACCAUGCAGGUGGGCAUCUUUGGGAAGUGGGGCAAGGGGGGGAUAGGGAGGGGGGUAACACUUUGGGAACAGGUGGAAACAGGUCGUUUCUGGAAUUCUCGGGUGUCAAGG	-0.812
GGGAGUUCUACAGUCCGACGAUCUGGCCCUGGUGGCAUGCGGGGAGGAAGAGGUGGCCUCAUGGAUCGUGGUGGUCCCGGUGGAAUGUUCAGAGGUGGCCUUGGUGGAGACAGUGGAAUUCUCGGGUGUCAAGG	3.42
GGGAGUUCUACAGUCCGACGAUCUGUGCUACACAUCGUAUGUACCGAAUCGGGGAAAAAAAGGGGUUUUUUUGGGGUUUUUGGGGAAAGUAUUAUGUUACGCCGUUCGGAUCUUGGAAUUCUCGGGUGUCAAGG	0.57
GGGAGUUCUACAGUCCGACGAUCUGGCCCUGGUGGCAUGCGGGGAGGAAGAGGUGGCCUCAUGGAUCCUGGUGGUCCCGGUGGAAUGUUCAGAGGUGGCCGUGGUGGAGACAGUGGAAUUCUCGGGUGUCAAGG	2.38
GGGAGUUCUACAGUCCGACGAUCUGUGCUACACAUCGUAUGUACCGAAUCGGGGAAAAAAAGGAAAAAAAGGGGAAAAAAAGGGGAAAGUAUUAUGUUACGCCGUUCGGAUCUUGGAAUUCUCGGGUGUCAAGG	-0.949
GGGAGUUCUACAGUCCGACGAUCAGUCCUGUGCUACACAUCGUAUGUACCGAAUCAAAGUGUGUGUGUGUGUGUGUGUAAAAAAGUAUUAUGUUACGCCGUUCGGAUCUGCACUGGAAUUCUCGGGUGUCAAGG	0.834

Excerpt of the above (set 4):
Modification	mean fluorescence intensity
2'F-ANA at 1 3 4 5 6 8 15	64.7 a.u.
2'F-ANA at 1 2 7 10 12	65.2 a.u.
2'F-ANA at 3 4 6 7 8 13 15	527 a.u.
2'F-ANA at 1 3 4 5 9 10 12 13 14	51.1 a.u.
2'F-ANA at 1 3 6 11 12 14	99.4 a.u.
2'F-ANA at 3 5 6 7 8 10 11 12 14 15	50.8 a.u.
